Literature values that unrelated publications cite.
Compare with care: the assays were run in different laboratories. ± marks the error that the study gave. Converted amounts (≈) assume the structure as drawn.
Genome polyprotein NS2B-NS3 protease: Genome polyprotein, NS2B-NS3 protease (dengue virus type 2, UniProt P29990)

Cc1noc(C)c1-c1ccc(=O)n(Cc2ccc(C3CO3)c(F)c2)c1 (centres unmarked)  IC50 (Bromodomain-containing protein 4, BD2 (BRD4, Homo sapiens, UniProt O60885); biochemical; bromodomain 2): 130 nM
CC[C@H](C)[C@H](NC(=O)[C@H](CCCCN)NC(=O)[C@H](CCC(=O)O)NC(=O)[C@@H](NC(=O)[C@H](CCCNC(=N)N)NC(=O)[C@@H](NC(=O)CNC(=O)[C@H](CC(C)C)NC(=O)[C@H](CCCCN)NC(=O)[C@H](CCCNC(=N)N)NC(=O)[C@H](CCC(=O)O)NC(=O)[C@H](CC(C)C)NC(=O)CNC(=O)[C@@H](N)CCCNC(=N)N)C(C)C)[C@@H](C)CC)C(=O)NCC(=O)N[C@@H](CCCNC(=N)N)C(=O)N[C@@H](CCCNC(=N)N)C(=O)N[C@@H](CC(C)C)C(=O)NCC(=O)N[C@@H](CCCNC(=N)N)C(=O)N[C@H](C(=O)N[C@@H](CC(C)C)C(=O)NCC(=O)N[C@@H](CCC(=O)O)C(=O)N[C@@H](Cc1c[nH]c2ccccc12)C(=O)N[C@@H](CCC(=O)O)C(=O)N[C@H](C(=O)N[C@@H](CCC(=O)O)C(=O)O)C(C)C)[C@@H](C)CC  MIC (Escherichia coli): 4 µM (≈ 13.3 µg/mL)
CC(=O)OC12COC1CC(O)C1(C)C(=O)C(OC(=O)C3CC3)C3=C(C)C(OC(=O)C(O)C(C=C(C)C)NC(=O)OC(C)(C)C)CC(O)(C(OC(=O)c4cccc(OC(F)(F)F)c4)C21)C3(C)C (centres unmarked)  IC50 (LCC6-WT; cytotoxicity): 0.58 nM
COc1cc2c(cc1O)C(CCc1ccc(Cl)cc1)N(C)CC2 (centres unmarked)  Kd (Glutamate NMDA receptor; Grin1/Grin2b (Grin1/Grin2b, Rattus norvegicus, UniProt P35439+Q00960); binding, competitive binding): 20 ± 3 nM
OC[C@@]12C[C@@H]1[C@@H](n1cnc3c(N[C@@H](C4CCC4)C4CC4)nc(Cl)nc31)[C@H](O)[C@@H]2O  Ki (5-hydroxytryptamine receptor 2C (HTR2C, Homo sapiens, UniProt P28335); binding; together with: [3H]mesulergine): 270 nM
CC(=O)OC1C(=O)C2(C)C(O)CC3OCC3(OC(C)=O)C2C(OC(=O)c2cccc(OC(F)(F)F)c2)C2(O)CC(OC(=O)C(O)C(C=C(C)C)NC(=O)OC(C)(C)C)C(C)=C1C2(C)C (centres unmarked)  IC50 (CFPAC-1; cytotoxicity): 0.57 nM
CC[C@@H]1CN2CCc3c([nH]c4cccc(O)c34)[C@@H]2C[C@@H]1/C(=C\OC)C(=O)OC  EC50 (Mu-type opioid receptor (OPRM1, Homo sapiens, UniProt P35372); agonist): 681 ± 379 nM
C[C@@H]1CN([C@@H](c2cccc(O)c2)c2cccc(C(=O)N(C)c3cccc(F)c3)c2)[C@@H](C)CN1Cc1ccccc1  Ki (rat kappa opioid receptor; binding): 21.8 nM
CC[C@H](C)[C@H](NC(=O)[C@H](CC(C)C)NC(=O)[C@H](CCCNC(=N)N)NC(=O)CNC(=O)CNC(=O)[C@H](CCCCN)NC(=O)[C@H](CCCNC(=N)N)NC(=O)[C@H](CC(C)C)NC(=O)[C@H](CC(C)C)NC(=O)[C@H](CCCNC(=N)N)NC(=O)[C@@H](NC(=O)[C@H](CC(C)C)NC(=O)[C@@H](N)CO)[C@@H](C)O)C(=O)NCC(=O)N[C@@H](Cc1c[nH]c2ccccc12)C(=O)N[C@@H](CCCNC(=N)N)C(=O)N[C@@H](Cc1c[nH]c2ccccc12)C(=O)N[C@@H](CCC(=O)O)C(=O)N[C@@H](CCCCN)C(=O)N[C@H](C(=O)N[C@@H](CCCNC(=N)N)C(=O)N[C@@H](CC(N)=O)C(=O)N[C@@H](Cc1c[nH]c2ccccc12)C(=O)N[C@H](C(=O)N[C@@H](CCCNC(=N)N)C(=O)N[C@@H](CCCNC(=N)N)C(=O)N[C@H](C(=O)N[C@H](C(=O)N[C@@H](CCC(=O)O)C(=O)N[C@@H](CCCCN)C(=O)N[C@@H](CCCNC(=N)N)C(=O)N[C@@H](CCCCN)C(=O)N1CCC[C@H]1C(=O)N[C@@H](CC(N)=O)C(=O)N[C@@H](CCCCN)C(=O)O)[C@@H](C)CC)[C@@H](C)CC)[C@@H](C)CC)[C@@H](C)O  MIC (Escherichia coli): 4 µM (≈ 17.7 µg/mL)
O=C(NCc1cc(Br)cc(Br)c1OC(=O)c1ccccc1[N+](=O)[O-])c1ccccc1Cl  EC50 (Transcriptional activator protein LasR (lasR, Pseudomonas aeruginosa, UniProt P25084); reporter gene, agonist, lasI-luxCDABE reporter; PAO-JP2): 40 nM
NC(=O)c1cccc(NC(=O)C(NC(=O)c2ccc(Oc3ccccc3)cc2)c2ccc(OCc3ccccc3)cc2)c1 (centres unmarked)  EC50 (Genome polyprotein NS2B-NS3 protease; DENV-2 protease cell reporter; HeLa): 730 nM
COc1ccc(/C=C/C(=O)NCCc2c[nH]c3ccccc23)cc1OC  IC50 (Acetylcholinesterase (ACHE, Homo sapiens, UniProt P22303)): 11500 nM
CNC(=O)[C@@]12C[C@@H]1[C@@H](n1cnc3c(NC(C4CC4)C4CC4)nc(Cl)nc31)[C@H](O)[C@@H]2O  Ki (Adenosine receptor A2a (ADORA2A, Homo sapiens, UniProt P29274); binding; together with: [3H]CGS21680): 4320 nM
CN(C)/C=C/C(=O)c1cc2ccc(Oc3cn(Cc4ccc(F)c(F)c4)nn3)cc2oc1=O  IC50 (Cholinesterase (BCHE, Homo sapiens, UniProt P06276); inhibitor): 21700 nM
CCCCCC(=O)NC(C(=O)NCc1ccc(NC(=N)N)cc1)c1ccc(OCc2ccccc2)cc1 (centres unmarked)  EC50 (Genome polyprotein NS2B-NS3 protease; DENV-2 protease cell reporter; HeLa): 490 nM
C=CCN1C[C@H](C)N([C@@H](c2ccccc2)c2ccc(C(=O)N(CC)CC)cc2)C[C@H]1C  Ki (mu opioid receptor rat): 3000 nM
PVDPFEAQWAALENK  Kd (MDM2 SWIB domain; binding; peptide): 3000 nM
